Experimental data gathered from unrelated publications.
Numbered parts are unrelated; each lists some results of a single study.

Block 1
Target: Ras GTPase-activating protein-binding protein 1, C-terminal RGG region (G3BP1, Homo sapiens, UniProt Q13283)
Chain of UniProt Q13283 (whole entry, looked up): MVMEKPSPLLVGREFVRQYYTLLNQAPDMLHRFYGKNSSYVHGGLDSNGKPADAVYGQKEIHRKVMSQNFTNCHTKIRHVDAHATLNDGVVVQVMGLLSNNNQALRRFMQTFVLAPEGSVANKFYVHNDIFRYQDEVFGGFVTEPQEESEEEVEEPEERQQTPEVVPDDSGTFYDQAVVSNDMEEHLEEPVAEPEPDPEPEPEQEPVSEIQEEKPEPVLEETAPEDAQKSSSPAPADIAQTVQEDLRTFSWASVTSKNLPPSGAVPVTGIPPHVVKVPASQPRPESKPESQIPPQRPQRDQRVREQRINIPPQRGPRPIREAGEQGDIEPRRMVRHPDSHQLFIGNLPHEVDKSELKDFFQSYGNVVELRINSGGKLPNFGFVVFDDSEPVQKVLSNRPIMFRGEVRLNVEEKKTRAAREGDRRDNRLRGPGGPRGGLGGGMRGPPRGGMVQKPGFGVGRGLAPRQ
Method: RNA Bind-n-Seq
Form: RNA
Sample: in vitro
Concentration: 1 µM
Setting: whole 134-nt RNA, ends assumed
Together with: 150 mM KCl
Baseline: input library
Direction: higher = stronger binding
Constant ends, left off below: GGGAGUUCUACAGUCCGACGAUC … UGGAAUUCUCGGGUGUCAAGG
Oligonucleotide | log2 enrichment
AGGGAGGUGGAUUUUGUUUAUUUUUUUAGCUCAUUUCCAGGGGUGGGAAUUUUUUUUUAAUAUGUGUCAUGAAUAAAGUUGUUUUUGAAA | 3.48
UGCUUCAGACCAAGCGGAGCUCCCGGAGGCAAAGCCUGGAGCUGCAGAAGUGUGAAGAGAUCCUCCACAAGAUCGUGAAGUACCGCUUCA | -2.95
UGGGAGGUGGAUUUUGUUUAUUUUUUUAGCUCAUUUCCCGGGGUGGGAAUUUUUUUUUAAUAUGUGUCAUGAAUAAAGUUGUUUUUGAAA | 3.23
UGUGCUACACAUCGUAUGUACCGAAUCGGAAAAAAAGGGGAAAAAAAGGGGAAAAAAAGGGGAAAGUAUUAUGUUACGCCGUUCGGAUCU | -0.822
UAAUUUAGAUCUUAAAGAAAAAGUGGAGCCUGAGGUUCUCAGCACUGAUACCCAAACUUCCCCAGAGCCAGGCACAAGGAUGAACAUUCU | -1.17
CCUGUGCUACACAUCGUAUGUACCGAAUCGGUUUUUUGGGGUUUUUUGGGGUUUUUUGGGAAAGUAUUAUGUUACGCCGUUCGGAUCUGC | -1.41
CAGAGACAACACGCACCCACACAGACACAGAGGGAAGGGGUUGGGAUGGGGACAGGGUGCACAGCAGGGCGGGGUAGGACCCCAGCCCCU | -0.321

Block 2
Target: Interferon regulatory factor 3, full length, phosphomimetic (IRF3, Homo sapiens, UniProt Q14653, residues 1-427, S386D/S396D/S398D/S402D/T404D/S405D)
Chain of UniProt Q14653 (whole entry, unmodified, looked up): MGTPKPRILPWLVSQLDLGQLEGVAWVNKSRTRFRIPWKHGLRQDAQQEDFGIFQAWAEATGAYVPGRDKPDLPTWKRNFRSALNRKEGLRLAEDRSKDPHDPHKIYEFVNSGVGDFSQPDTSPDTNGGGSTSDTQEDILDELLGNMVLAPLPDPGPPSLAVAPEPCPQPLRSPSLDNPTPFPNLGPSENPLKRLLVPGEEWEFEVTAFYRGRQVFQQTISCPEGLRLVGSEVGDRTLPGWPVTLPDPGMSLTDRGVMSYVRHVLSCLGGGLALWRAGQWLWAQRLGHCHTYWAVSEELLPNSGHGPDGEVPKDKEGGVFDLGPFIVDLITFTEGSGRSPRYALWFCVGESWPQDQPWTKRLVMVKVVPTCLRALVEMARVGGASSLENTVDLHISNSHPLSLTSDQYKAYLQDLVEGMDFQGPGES
Method: protein-binding microarray
Form: double-stranded DNA, one strand shown
Sample: in vitro
Concentration: 2540 nM top
Setting: 60-bp whole probe
Together with: salmon DNA 0.4 mg/ml
Baseline: random background probes
Direction: higher = stronger binding
Constant ends, left off below: GCCTAGCAC … GTCTTGATTCGCTTGACGCTGCTG
Oligonucleotide | fitted relative affinity [z-score]
GACGATTTCGGACTGGGGACGTGCTAG | 1.8
GACGATTTCGGGACTGGAGACGTGCTA | 1.89
TTAGGTCTCCTACGGCTTTAGTGCTAG | -0.311
TAAGGACTGGGTATCGGTTAGTGCTAG | 0.449
GACGATATCTGTCTCGAGACGTGCTAG | 0.56
TTAGCACTGGGTATCGGTTAGTGCTAG | 0.441

Block 3
Target: Sal-like protein 4, full length isoform B (SALL4, Homo sapiens, UniProt Q9UJQ4-2, residues 1-616)
Method: universal PBM
Form: double-stranded DNA, one strand shown
Sample: in vitro
Concentration: not given
Setting: 8-mer, flanks averaged, mean of replicates
Direction: higher = stronger binding
Oligonucleotide | E-score
CTCGGCTA | -0.237
TAACCGCA | 0.089
GGCGCGCA | -0.125
AGACGTAG | 0.0732
GCATACGC | 0.0368

Mixed results
Substance | target | assay | system | conditions | how to read | measurement | result
PhoQ, residues 284 288 289 292 302 303 AGHLVA | PhoP, residues 12 14 15 18 19 GQAIL (Escherichia coli, UniProt P23836) | Sort-seq, measured: YFP reporter | E. coli | PhoQ-PhoP variant library, together with: 10 µM Mg2+ | baseline: high Mg2+ state, higher = stronger signaling | fold induction | 7
